Measured values collected from several papers.
Compare with care: the assays were run in different laboratories. Several values in a cell are separate wells, animals, samples, runs or records. ± marks the error that the study gave.

Compound | assay | test system | conditions | scale | endpoint | result
O=S(=O)(NCCNC/C=C/c1ccc(Br)cc1)c1cccc2cnccc12 | embryonic development | mouse zygotes | 20 µM, 96 h post-hCG |  | two-cell embryos | 35.3% and 63.2% and 35%
CN(C)C(=O)c1cc2cnc(Nc3ccc(N4CCNCC4)cn3)nc2n1C1CCCC1 | RNA-seq GSEA, item: HALLMARK_E2F_TARGETS | MB002 tumour | concentration not given, in vivo | baseline: vehicle, direction not given | GSEA enrichment score | 0.72
Cc1cn(-c2ccc3n(c2=O)CCN([C@@H](C)[C@@H]2CC[C@H](c4cc(F)c(Cl)cc4C(F)(F)F)O2)C3=O)cn1 | item: amyloid beta 40 | human, non-elderly, cerebrospinal fluid | 40 mg once daily, 14 days, sampled 336 h | baseline: placebo | change from baseline | -5.89%
Cc1cn([C@H]2C=C[C@@H](CO)O2)c(=O)[nH]c1=O | barrier function (TEER) | human ileal GI microtissue EpiIntestinal-FT |  |  | IC15 | > 100 µM
N#Cc1ccc2c(c1)[C@H]1CCCN(C(=O)c3ccc4[nH]cnc4c3)[C@H]1C2 |  | human, plasma | 80 mg, day 15, 360 h | baseline: placebo and baseline | change in fasting glucose | 3.9%
c1ccc(-c2cc(-c3ccccc3)n(Cn3ccnc3)n2)cc1 |  | rat, STZ-nicotinamide diabetic | 150 mg/kg, 72 h, full-thickness excision wound |  | wound size | 17.4 mm
O=C(O)/C=C/c1nccc2c3ccccc3n(Cc3ccc(C4CC4)cc3)c12 |  | mouse, acute hyperuricaemia model | oral, 2 mg/kg |  | serum uric acid | 390 µM
CC(=O)Oc1cc2c(s1)CCN(C(C(=O)C1CC1)c1ccccc1F)C2 (stereo not drawn) | platelet aggregation, light transmission aggregometry | human patients, platelet-rich plasma | dose not given, 2 h, added: TRAP 15 µM |  | patients with IPA above 80% | 0%
CCC/C(=C\C1=C(OC)C(=O)c2ccccc2C1=O)C(=O)N(CC)CC | subretinal neovascularization | Vldlr-/- mouse | intraperitoneal, 12.5 or 25 mg/kg twice daily, 7 days | baseline: vehicle | neovascular area | decreased
C[C@H]1C[C@H]2CSC(N)=N[C@@]2(c2nc(NC(=O)c3ccc(OC(F)F)cn3)cs2)CO1 | item: total Aβ | healthy adults, plasma | 5 mg once daily, day 10 | baseline: placebo | percent change from baseline | -31.9%
O=C(O)CSc1nnc(Br)n1-c1ccc(C2CC2)c2ccccc12 |  | mouse, chronic hyperuricaemia model, serum | dose not given |  | serum uric acid | 620 µM and 558 µM and 603 µM and 310 µM and 591 µM and 260 µM
CC(C)NCC(O)c1ccc(O)c(O)c1 (stereo not drawn) |  | ventricular cardiomyocytes, C57BL/6 mouse | dose not given, 0.848 s |  | sarcomere length | 1.5 µm
O=C(O[C@@H]1[C@@H](O)[C@H](Oc2cc(O)c3c(c2)O[C@H](c2ccccc2)CC3=O)O[C@@H]2COC(=O)c3cc(O)c(O)c(O)c3-c3c(cc(O)c(O)c3O)C(=O)O[C@@H]12)c1cc(O)c(O)c(O)c1 | laser-injury thrombosis model | mouse, cremaster arterioles | intravenous infusion, dose not given | baseline: control | fibrin formation | 21 ± 3.7%
O=C(NS(=O)(=O)c1cc(F)cc(F)c1)c1cc2ccccc2n1Cc1ccc(Br)c2ccccc12 |  | mouse, acute hyperuricemia model | dose not given |  | serum uric acid | 589 µM and 618 µM and 452 µM and 708 µM and 476 µM
C[C@H](NC(=O)c1c(C(F)F)nn(C)c1Oc1cccc(C(F)(F)F)c1)c1ccc(C(=O)O)cc1 | irRECIST | human, advanced tumours | 750 mg | best overall response | complete response | 0%
CC(C)c1c(C(=O)Nc2ccccc2)c(-c2ccccc2)c(-c2ccc(F)cc2)n1CC[C@@H](O)C[C@@H](O)CC(=O)O | ELISA | cynomolgus monkey, female, plasma | 40 mg/kg or 25 mg/kg, day 176 | baseline: pretreatment | plasma PCSK9 change | 8.4%
[Cl-].[Cl-].[Pt+2].[Ru+2].c1ccc(-c2nc3cc4ccccc4cc3nc2-c2ccccn2)nc1.c1cnc2c(c1)ccc1cccnc12.c1cnc2c(c1)ccc1cccnc12 |  |  | concentration not given, second substitution step, added: guanosine 5'-monophosphate |  | activation enthalpy | 12.9 ± 0.956 kcal/mol
CC(C)(O)c1coc(S(=O)(=O)NC(=O)c2cc3ccccc3n2Cc2ccc(C3CC3)c3ccccc23)c1 |  | mouse, acute hyperuricaemia model, serum | oral, 2 mg/kg | baseline: vehicle model | serum uric acid decrease | 74.1%
CO[C@H]1C[C@@H]2CC[C@@H](C)[C@@](O)(O2)C(=O)C(=O)N2CCCC[C@H]2C(=O)O[C@H]([C@H](C)C[C@@H]2CC[C@@H](OC(=O)NCCOCCOCCOCCOCCOCCOCCOCCOCCC(=O)N3CCc4cc(Cn5nc(-c6ccc7oc(N)nc7c6)c6c(N)ncnc65)ccc4C3)[C@H](OC)C2)C[C@@H](O)[C@H](C)/C=C(\C)[C@@H](O)[C@@H](OC)C(=O)[C@H](C)C[C@H](C)/C=C/C=C/C=C/1C | RECIST v1.1 | human | dose not given |  | duration of response | 16 months
CCN1CCN(Cc2ccc(Nc3ncc(F)c(-c4cc(F)c5nc6n(c5c4)[C@H](C)CCC6)n3)nc2)CC1 |  | human advanced solid tumours | 100 mg, phase Ia monotherapy RECIST 1.1 |  | complete response | 0%
Cc1nc(-c2ccc(OCC(C)C)c(C#N)c2)sc1C(=O)O |  | mouse, acute hyperuricaemia model | 1 mg/kg |  | serum uric acid | 179 ± 2.5 µM
OC[C@H]1O[C@@H](c2ccc(Cl)c(Cc3ccc(O[C@H]4CCOC4)cc3)c2)[C@H](O)[C@@H](O)[C@@H]1O |  | Japanese type 1 diabetes patients | 2.5 mg, day 28, 672 h | baseline: baseline | systolic blood pressure change | -0.7 mmHg
C#CCNS(=O)(=O)c1ccc(CCN(Cc2cc(Cl)ccc2OCCC)C(=O)c2ccc(F)cc2)cc1 |  | Nlrp3-/- mouse LPS challenge | 10 mg/kg |  | serum TNF-alpha | inactive
[Cl-].[Cl-].[Pt+2].[Ru+2].c1ccc(-c2nc3ccccc3nc2-c2ccccn2)nc1.c1cnc2c(c1)ccc1cccnc12.c1cnc2c(c1)ccc1cccnc12 |  |  | concentration not given, second substitution step, added: thiourea |  | activation enthalpy | 8.6 ± 0.478 kcal/mol

Compound | assay | test system | conditions | scale | endpoint | result
CN[C@@H]1COc2c(S(=O)(=O)NC(=O)Nc3c4c(cc5c3CCC5)CCC4)cnn2C1 | item: IL-1β | human participants, whole blood ex vivo | 150 mg single dose, 1 h, added: LPS/ATP | baseline: baseline | inhibition | 92.5%
O=C(O)CNC(=O)Cc1ccccc1 |  | ventricular cardiomyocytes, C57BL/6 mouse | dose not given, 0.844 s |  | sarcomere length | 1.63 µm
C[C@H](Oc1ccc(Br)cc1-c1ccon1)C(=O)O | muscle velocity recovery cycles | human, tibialis anterior muscle | 1200 mg single dose, 3.5 h | baseline: placebo | MVRC latency difference | 0.366 ms
Cc1cc(Nc2ncc(Cl)c(Nc3ccccc3S(=O)(=O)C(C)C)n2)c(OC(C)C)cc1C1CCNCC1 |  | patients with advanced solid tumours | dose not given |  | median progression-free survival | 4.8 months
CCN1/C(=C/C(C)=O)Sc2ccc(F)cc21 | von Frey test | wild-type mice, burn injury pain, burn-injured hind paw | 10 mg/kg |  | paw withdrawal threshold | increased
N#CCC1CCN(c2nc(Nc3ccc(N4CCC(O)CC4)cc3)c3c(=O)[nH]ncc3n2)CC1 | Olink multiplex | human, serum | 40 mg, day 29, unit not given | baseline: baseline | osteopontin level change | -1.28
COc1cc2cc(-c3ccc(CC(=O)Nc4cc(C(C)(C)C(F)(F)F)no4)cn3)cnc2cc1OC | RECIST v1.1 | RET-altered advanced solid tumour patients | oral, 100 mg once daily, phase I |  | disease control rate | 100%
FC(F)(F)Oc1cccc(-c2cnc3ccc(-c4ccncc4)nn23)c1 | bioluminescence | mouse, MDA-MB-231-Luc xenograft | 10 mg/kg, day 14 |  | tumour growth | 333% and 400% and 199% and 268% and 184% and 173%
C=CCn1c(=O)c2cnc(Nc3ccc(N4CCN(C)CC4)cc3)nc2n1-c1ccc2c(n1)[C@@](O)(CC)CC2 |  | OVCAR-3 xenograft, NOD/SCID mouse | 100 mg/kg once daily, :4 |  | tumour growth inhibition | 94.4%
COc1ccc([C@@H](O)c2cc(-c3ncnc4cc(N5CCOCC5)ccc34)c(F)cc2Cl)nn1 | RECIST version 1.1 | patients, advanced solid tumours | 400 mg twice daily, added: avelumab | baseline: patients | objective response rate | 0%
O=C(OC(C(F)(F)F)C(F)(F)F)N1CCN(Cc2cccc(Oc3ccccc3)c2)CC1 | PET | rhesus monkey, pons | intravenous, 0.01 mg/kg, pretreatment blocking, added: [18F]T-401 |  | tracer distribution volume | 2.89 mL/cm3
Cc1cc(/C=C2\Oc3cc(OCC4CC4)ccc3C2=O)cc(C)c1OC(C)(C)C(=O)O |  | db/db mice, MCD diet-fed, WAT and BAT | oral, 30 mg/kg, 45 days daily | baseline: model group | adipocyte size | decreased
N#Cc1ccc2c(-c3ccncc3)c(-c3ccc(F)cc3)nn2c1 | kinase binding, competitor, MIB/MS competition, item: RIO2 | Candida albicans cell lysate | 10 µM | baseline: DMSO | log2 fold change | -0.275
OC(CCN1CCCCC1)(c1ccccc1)C1CC2C=CC1C2 (stereo not drawn) | resting-state EEG | healthy elderly humans | oral, 2 mg, eyes closed, LS mean |  | EEG Beta1-power Pz-O2 | 4.5 µV²
C[C@@H](NC(=O)N1C(=O)[C@H](Cc2ccnc(N)c2)[C@H]1C(=O)O)C1CCCCC1 |  | human | iv infusion, 2.25 mg/kg/h, 24 h, unit not given | baseline: baseline | ACT AUEC | 120
O=P(O)(O)C(Cl)(Cl)P(=O)(O)O |  | Mus musculus, sham-operated, hippocampal fissure | concentration not given, day 7 | baseline: total area | Iba1-positive area | 0.45% and 1.2% and 0.35%
NC(=O)c1cnc2[nH]ccc2c1N[C@@H]1[C@@H]2CC3C[C@H]1C[C@@](O)(C3)C2 | CD4+ central memory T cells, flow cytometry | Japanese humans, peripheral blood | 60 mg single dose | baseline: baseline | percent change | 0.17%
CC(=O)NCC(=O)NCC(=O)N[C@H](C(=O)N[C@@H](Cc1ccc(O)cc1)C(=O)N[C@@H](CO)C(=O)N[C@H]1CSSC[C@@H](C(=O)N[C@@H](CCCNC(=N)N)C(=O)N2CCC[C@H]2C(=O)N[C@@H](CCC(N)=O)C(=O)N[C@@H](CCCNC(=N)N)C(=O)NCC(=O)NCCC(=O)N[C@@H](CCCCNC(=O)CN(CC(=O)NCCCC[C@H](NC(=O)CCNC(=O)CNC(=O)[C@H](CCCNC(=N)N)NC(=O)[C@H](CCC(N)=O)NC(=O)[C@@H]2CCCN2C(=O)[C@H](CCCNC(=N)N)NC(=O)[C@@H]2CSSC[C@H](NC(=O)[C@H](CO)NC(=O)[C@H](Cc3ccc(O)cc3)NC(=O)[C@@H](NC(=O)CNC(=O)CNC(C)=O)[C@@H](C)O)C(=O)N[C@@H](Cc3c[nH]cn3)C(=O)N[C@@H](Cc3ccccc3)C(=O)NCC(=O)N[C@@H](C)C(=O)N[C@@H](CC(C)C)C(=O)N[C@@H]([C@@H](C)O)C(=O)N[C@@H](Cc3c[nH]c4ccccc34)C(=O)N[C@@H](C(C)C)C(=O)N2)C(N)=O)C(=O)CCN)C(N)=O)NC(=O)[C@H](C(C)C)NC(=O)[C@H](Cc2c[nH]c3ccccc23)NC(=O)[C@H]([C@@H](C)O)NC(=O)[C@H](CC(C)C)NC(=O)[C@H](C)NC(=O)CNC(=O)[C@H](Cc2ccccc2)NC(=O)[C@H](Cc2c[nH]cn2)NC1=O)[C@@H](C)O |  | healthy BALB/c mice | subcutaneous, 0.16 mg/kg, 14 d, single dose |  | haemoglobin | 167 g/L
O=C1Nc2cc3[nH]nc(-c4ccncc4)c3cc2CN1Cc1ccccc1 | RECIST v1.1 | human, relapsed or refractory advanced solid tumours | intravenous, 0.45 mg/kg, pooled schedules |  | partial response, best response | 0%
N#CC[C@H](C1CCCC1)n1cc(-c2ncnc3[nH]ccc23)cn1 | phosphoflow cytometry, item: pSTAT5 | patients, patient plasma | dose not given | baseline: baseline | median peak inhibition | 58.9%
Cc1n[nH]c2ccc(-c3cc(OC[C@@H](N)Cc4ccccc4)cnc3-c3ccoc3)cc12 | kinase binding, competitor, MIB/MS competition, item: MKK2 | Candida albicans cell lysate | 1 µM | baseline: DMSO | log2 fold change | -0.183
CCOc1cc(/C=C2\CN(C(C)=O)CC3=C2OC(N)=C(C#N)C3c2ccc(O)c(OCC)c2)ccc1O (stereo not drawn) |  | rat, DMBA-induced mammary tumour, mammary tumour | dose not given, day 0 |  | tumour volume | 0.24 ± 0.01 cm3
N#Cc1ccn2c(-c3ccncc3)c(-c3ccc(F)cc3)nc2c1 | kinase binding, competitor, MIB/MS competition, item: SHA3 | Candida albicans cell lysate | 100 nM | baseline: DMSO | log2 fold change | 0.0105
COc1cc(Nc2ncc3c(n2)-c2ccc(Cl)cc2C(c2c(F)cccc2OC)=NC3)ccc1C(=O)O |  | mouse, NB-SD neuroblastoma xenograft | oral, 20.8 mg/kg, day 7 | baseline: vehicle | relative tumour volume T/C | 1.48

Excerpt of the above:
Compound | assay | test system | conditions | scale | endpoint | result
Cc1cn(-c2ccc3n(c2=O)CCN([C@@H](C)[C@@H]2CC[C@H](c4cc(F)c(Cl)cc4C(F)(F)F)O2)C3=O)cn1 | item: amyloid beta 40 | human, non-elderly, cerebrospinal fluid | 40 mg once daily, 14 days, sampled 336 h | baseline: placebo | change from baseline | -5.89%
Cc1cn([C@H]2C=C[C@@H](CO)O2)c(=O)[nH]c1=O | barrier function (TEER) | human ileal GI microtissue EpiIntestinal-FT |  |  | IC15 | > 100 µM
N#Cc1ccc2c(c1)[C@H]1CCCN(C(=O)c3ccc4[nH]cnc4c3)[C@H]1C2 |  | human, plasma | 80 mg, day 15, 360 h | baseline: placebo and baseline | change in fasting glucose | 3.9%
c1ccc(-c2cc(-c3ccccc3)n(Cn3ccnc3)n2)cc1 |  | rat, STZ-nicotinamide diabetic | 150 mg/kg, 72 h, full-thickness excision wound |  | wound size | 17.4 mm
O=C(O)/C=C/c1nccc2c3ccccc3n(Cc3ccc(C4CC4)cc3)c12 |  | mouse, acute hyperuricaemia model | oral, 2 mg/kg |  | serum uric acid | 390 µM
CC(=O)Oc1cc2c(s1)CCN(C(C(=O)C1CC1)c1ccccc1F)C2 (stereo not drawn) | platelet aggregation, light transmission aggregometry | human patients, platelet-rich plasma | dose not given, 2 h, added: TRAP 15 µM |  | patients with IPA above 80% | 0%
